Measured values gathered from unrelated publications.
Each line is one published result; not all experiments were run side by side.
Chain of UniProt Q8IWQ3 (whole entry, looked up): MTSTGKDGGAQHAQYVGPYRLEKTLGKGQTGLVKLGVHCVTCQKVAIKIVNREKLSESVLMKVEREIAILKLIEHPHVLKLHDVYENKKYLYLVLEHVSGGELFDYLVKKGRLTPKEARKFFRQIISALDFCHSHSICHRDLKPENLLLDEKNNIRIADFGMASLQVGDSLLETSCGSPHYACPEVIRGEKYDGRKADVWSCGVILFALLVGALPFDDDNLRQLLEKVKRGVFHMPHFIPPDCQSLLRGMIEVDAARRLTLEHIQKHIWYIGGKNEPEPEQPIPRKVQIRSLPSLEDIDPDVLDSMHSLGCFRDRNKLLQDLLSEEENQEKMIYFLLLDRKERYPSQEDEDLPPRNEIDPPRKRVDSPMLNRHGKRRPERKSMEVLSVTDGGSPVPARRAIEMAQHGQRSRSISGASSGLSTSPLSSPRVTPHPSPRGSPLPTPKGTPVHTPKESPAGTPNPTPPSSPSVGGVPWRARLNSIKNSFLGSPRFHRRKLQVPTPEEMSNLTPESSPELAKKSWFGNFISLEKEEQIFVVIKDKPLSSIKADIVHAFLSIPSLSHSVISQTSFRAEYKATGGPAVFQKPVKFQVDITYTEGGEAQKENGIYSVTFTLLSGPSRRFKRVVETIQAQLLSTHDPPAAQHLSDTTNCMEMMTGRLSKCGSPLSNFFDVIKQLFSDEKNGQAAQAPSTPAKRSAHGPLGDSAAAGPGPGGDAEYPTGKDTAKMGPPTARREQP
Chain of UniProt Q9Y2H1 (whole entry, looked up): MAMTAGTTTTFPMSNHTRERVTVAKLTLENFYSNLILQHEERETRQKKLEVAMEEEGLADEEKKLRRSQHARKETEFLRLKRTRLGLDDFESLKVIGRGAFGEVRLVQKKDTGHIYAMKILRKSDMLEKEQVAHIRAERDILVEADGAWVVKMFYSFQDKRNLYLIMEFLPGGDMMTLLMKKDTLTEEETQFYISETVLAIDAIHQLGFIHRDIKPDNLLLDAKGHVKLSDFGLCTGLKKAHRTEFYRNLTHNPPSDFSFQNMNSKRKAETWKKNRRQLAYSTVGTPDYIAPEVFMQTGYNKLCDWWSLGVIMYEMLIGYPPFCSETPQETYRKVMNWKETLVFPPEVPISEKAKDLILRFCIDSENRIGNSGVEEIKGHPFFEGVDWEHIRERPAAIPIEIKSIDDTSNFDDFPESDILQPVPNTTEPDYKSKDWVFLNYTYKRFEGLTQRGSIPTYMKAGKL
Chain of UniProt P36896 (whole entry, looked up): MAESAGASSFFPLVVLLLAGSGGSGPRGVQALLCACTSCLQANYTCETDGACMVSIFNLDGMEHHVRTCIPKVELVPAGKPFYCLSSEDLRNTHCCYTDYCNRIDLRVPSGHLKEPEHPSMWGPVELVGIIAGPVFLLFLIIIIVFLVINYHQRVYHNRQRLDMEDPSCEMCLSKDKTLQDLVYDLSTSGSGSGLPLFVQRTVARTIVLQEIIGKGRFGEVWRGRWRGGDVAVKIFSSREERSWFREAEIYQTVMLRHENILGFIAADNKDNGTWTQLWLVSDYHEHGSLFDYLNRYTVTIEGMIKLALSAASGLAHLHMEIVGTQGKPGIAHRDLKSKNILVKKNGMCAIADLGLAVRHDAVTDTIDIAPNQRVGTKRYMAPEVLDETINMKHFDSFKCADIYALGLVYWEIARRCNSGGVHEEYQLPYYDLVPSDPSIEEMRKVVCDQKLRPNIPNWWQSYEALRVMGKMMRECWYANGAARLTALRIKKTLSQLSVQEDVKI
Chain of UniProt Q15059 (whole entry, unmodified, looked up): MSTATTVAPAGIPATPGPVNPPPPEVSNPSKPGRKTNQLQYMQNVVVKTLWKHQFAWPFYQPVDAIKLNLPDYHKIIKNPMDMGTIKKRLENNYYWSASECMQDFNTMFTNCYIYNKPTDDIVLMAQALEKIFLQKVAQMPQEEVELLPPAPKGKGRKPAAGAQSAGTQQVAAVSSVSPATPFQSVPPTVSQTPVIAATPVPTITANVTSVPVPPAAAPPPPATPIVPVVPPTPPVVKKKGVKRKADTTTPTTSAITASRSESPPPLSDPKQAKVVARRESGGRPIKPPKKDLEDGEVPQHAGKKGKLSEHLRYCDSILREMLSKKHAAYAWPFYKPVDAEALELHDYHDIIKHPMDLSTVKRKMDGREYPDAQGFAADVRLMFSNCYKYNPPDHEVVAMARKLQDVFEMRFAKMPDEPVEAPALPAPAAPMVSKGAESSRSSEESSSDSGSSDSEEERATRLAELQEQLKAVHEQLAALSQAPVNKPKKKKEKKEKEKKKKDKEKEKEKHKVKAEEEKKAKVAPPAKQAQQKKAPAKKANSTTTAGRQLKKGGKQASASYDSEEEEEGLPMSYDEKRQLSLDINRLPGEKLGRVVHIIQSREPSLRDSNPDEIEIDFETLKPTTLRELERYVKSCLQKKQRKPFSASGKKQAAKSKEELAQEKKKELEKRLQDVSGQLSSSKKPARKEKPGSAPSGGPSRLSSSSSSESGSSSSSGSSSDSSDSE
Chain of UniProt Q9NWZ3 (whole entry, looked up): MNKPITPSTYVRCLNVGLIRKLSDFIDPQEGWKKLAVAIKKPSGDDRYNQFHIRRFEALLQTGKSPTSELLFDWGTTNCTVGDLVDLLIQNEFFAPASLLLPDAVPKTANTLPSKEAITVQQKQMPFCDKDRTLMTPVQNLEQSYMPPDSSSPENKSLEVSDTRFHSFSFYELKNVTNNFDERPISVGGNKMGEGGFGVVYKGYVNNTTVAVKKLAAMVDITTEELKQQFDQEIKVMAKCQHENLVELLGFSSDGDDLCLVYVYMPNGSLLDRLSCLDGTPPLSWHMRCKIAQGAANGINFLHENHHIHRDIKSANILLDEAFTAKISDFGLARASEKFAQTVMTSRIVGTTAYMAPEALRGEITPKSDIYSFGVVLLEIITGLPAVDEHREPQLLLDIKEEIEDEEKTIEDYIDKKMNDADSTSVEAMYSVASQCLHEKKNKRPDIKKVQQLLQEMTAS
Chain of UniProt Q6PE15 (whole entry, looked up): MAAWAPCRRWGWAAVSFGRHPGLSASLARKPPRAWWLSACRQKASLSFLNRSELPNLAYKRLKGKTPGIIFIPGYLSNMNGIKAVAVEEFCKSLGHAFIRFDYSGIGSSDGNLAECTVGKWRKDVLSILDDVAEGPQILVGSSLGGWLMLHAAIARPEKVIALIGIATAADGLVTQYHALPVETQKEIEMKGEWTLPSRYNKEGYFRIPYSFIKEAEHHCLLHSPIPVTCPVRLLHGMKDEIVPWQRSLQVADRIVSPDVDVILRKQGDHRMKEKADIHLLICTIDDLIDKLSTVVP
Chain of UniProt Q86UX6 (whole entry, looked up): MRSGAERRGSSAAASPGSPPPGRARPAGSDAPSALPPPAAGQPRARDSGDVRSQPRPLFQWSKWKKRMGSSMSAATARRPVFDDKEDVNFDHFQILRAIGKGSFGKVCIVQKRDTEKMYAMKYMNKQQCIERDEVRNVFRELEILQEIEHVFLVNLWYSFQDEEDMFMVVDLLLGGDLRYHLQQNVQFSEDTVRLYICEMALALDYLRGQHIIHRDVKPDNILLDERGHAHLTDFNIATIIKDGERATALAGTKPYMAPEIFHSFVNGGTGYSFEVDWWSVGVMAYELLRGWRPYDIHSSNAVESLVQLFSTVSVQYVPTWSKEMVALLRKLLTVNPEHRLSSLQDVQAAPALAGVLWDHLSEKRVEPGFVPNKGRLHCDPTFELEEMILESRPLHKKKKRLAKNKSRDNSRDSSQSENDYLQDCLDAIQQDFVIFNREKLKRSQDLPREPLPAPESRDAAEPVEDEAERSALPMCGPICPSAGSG
Chain of UniProt Q9Y2J8 (whole entry, looked up): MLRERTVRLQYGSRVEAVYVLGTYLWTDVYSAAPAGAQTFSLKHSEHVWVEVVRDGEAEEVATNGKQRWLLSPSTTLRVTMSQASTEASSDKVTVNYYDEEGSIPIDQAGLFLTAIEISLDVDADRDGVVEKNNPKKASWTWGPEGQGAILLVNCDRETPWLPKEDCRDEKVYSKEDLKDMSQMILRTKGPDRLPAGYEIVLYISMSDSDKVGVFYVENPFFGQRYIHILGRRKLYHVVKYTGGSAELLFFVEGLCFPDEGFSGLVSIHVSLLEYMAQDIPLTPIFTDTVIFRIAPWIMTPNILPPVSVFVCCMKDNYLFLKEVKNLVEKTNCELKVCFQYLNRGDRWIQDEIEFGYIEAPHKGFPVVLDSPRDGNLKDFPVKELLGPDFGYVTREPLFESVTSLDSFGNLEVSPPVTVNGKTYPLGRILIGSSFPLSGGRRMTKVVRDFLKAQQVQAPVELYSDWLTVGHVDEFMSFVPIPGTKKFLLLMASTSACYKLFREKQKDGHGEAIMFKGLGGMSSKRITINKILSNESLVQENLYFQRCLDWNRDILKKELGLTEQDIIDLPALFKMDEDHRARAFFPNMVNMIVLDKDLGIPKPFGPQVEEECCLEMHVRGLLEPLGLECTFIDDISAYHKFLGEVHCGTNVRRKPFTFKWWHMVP

SMILES | target | assay | system | setting | how to read | quantity | result
Cc1sc2c(c1C)C(c1ccc(Cl)cc1)=N[C@@H](CC(=O)OC(C)(C)C)c1nnc(C)n1-2 | Bromodomain-containing protein 3, BD1 (BRD3, Homo sapiens, UniProt Q15059) | isothermal titration calorimetry | – | 15 °C, reverse titration | – | TΔS | 2.97 kcal/mol
CS(C)(=O)=Nc1ccc(-c2ccc(-c3nc4cc(O[C@@H]5CO[C@H]6[C@@H]5OC[C@H]6O)[nH]c4cc3F)cc2)cc1 | BRSK2 (Homo sapiens, UniProt Q8IWQ3) | enzyme activity, inhibitor | – | 10 µM | – | inhibition | 16%
CC(C)CC(O)(CC(C)C)c1cn(C(=O)N2CCCC2)nn1 | Palmitoyl-protein thioesterase ABHD10, mitochondrial (Mus musculus, UniProt Q6PE15) | probe labelling, inhibitor, item: Abhd10 | mouse, brain | i.p., 0.8 mg/kg, 4 h, protein level | relative to: treated over vehicle mice, lower = stronger inhibition | activity ratio-of-ratios | 2.71
Nc1ccc(/C=C/C(=O)N2CCc3c(oc4c(-c5ccc(F)cc5)cc(-c5ccc(C(=O)N6CCC(F)(F)CC6)cn5)cc34)C2)cn1 | ACVR1B (Homo sapiens, UniProt P36896) | binding, competition with immobilised ligand | – | 1 µM | – | remaining binding | 98%
CC(C)[C@H]1NC(=O)C[C@H]2/C=C/CCSSC[C@@H](NC1=O)C(=O)N[C@H](Cc1cccc3ccccc13)C(=O)NCC(=O)O2 | STK38L (Homo sapiens, UniProt Q9Y2H1) | enzyme activity, inhibitor | – | 10 µM | – | inhibition | -3.5%
CN(C)[C@H]1C[C@@]23CC[C@@]4(O2)C(=CC[C@]2(C)[C@@H](c5ccc6ccncc6c5)CC[C@H]24)C=C3[C@@H](O)[C@@H]1O | STK32C (Homo sapiens, UniProt Q86UX6) | ATP probe labelling, inhibitor, KiNativ profiling | – | 1 µM | – | inhibition | 2.6%
O=C1NC(=O)c2c1c1cc(F)c[n+]3c1c1c2c2cc(O)ccc2[n]1[Ru-4]312([N]=C=S)[S+]3CC[S+]1CC[S+]2CC3 (centres unmarked) | IRAK4 (Homo sapiens, UniProt Q9NWZ3) | enzyme activity | – | 100 nM, human enzyme, together with: 10 µM ATP | relative to: untreated | remaining activity | 94%
N[C@H](C(=O)N1CCCC1)C1CCN(c2nccc3c(-c4ncc(Cl)cc4Cl)cccc23)CC1 | PADI2 (Homo sapiens, UniProt Q9Y2J8) | enzyme activity, inhibitor | – | 3.84 µM, together with: Ca2+ 0.25 mM | – | inhibition | 98.7%
